{"data": "Experimental data gathered from unrelated publications", "note": "Compare with care: the assays were run in different laboratories. ± gives the spread as reported."}
{"Structure (SMILES)": "C=C(NC(=O)c1csc(-c2nc3c(cc2O)-c2nc(cs2)C(=O)NC(C(C)O)C(=O)NC(=C(C)OC)c2nc(cs2)C(=O)NC2c4nc(cs4)C(=O)NC(COC(=O)c4c5c6c(cccc6n4O)COC(=O)C(OC4CC(C)(O)C(N(C)C)C(C)O4)C2OC5)c2nc-3cs2)n1)C(N)=O (stereo not shown)", "target or system": "Enterococcus faecalis", "test": "agar dilution", "system": "vancomycin-intermediate", "quantity": "MIC90", "result": "0.0312 µg/mL"}
{"Structure (SMILES)": "C[n+]1cc(/C=N/NC(=O)c2cccc(C(=O)N/N=C/c3cc4ccccc4[n+](C)c3)c2)cc2ccccc21", "target or system": "telomeric G4 DNA hybrid-2", "test": "FRET melting", "conditions": "1 µM, DNA 0.2 µM", "quantity": "ΔTm", "result": "14.4 ± 0.8 °C"}
{"Structure (SMILES)": "N=C(N)NCCC[C@@H]1NC(=O)[C@H](CCCNC(=N)N)NC(=O)[C@@H](CCCNC(=N)N)NC(=O)[C@@H](CCCNC(=N)N)NC(=O)[C@@H](C(c2ccccc2)c2ccccc2)NC(=O)[C@H](Cc2c[nH]c3ccccc23)NC(=O)[C@@H](C(c2ccccc2)c2ccccc2)NC1=O", "target or system": "Aspergillus fumigatus", "test": "XTT", "system": "Af 293", "conditions": "MIC, 24 h, pre-formed biofilm", "quantity": "biofilm reduction", "result": "35 to 38%"}
{"Structure (SMILES)": "CC(C)(C)c1cc(-c2ccc3cccnc3n2)nc(-c2ccc3cccnc3n2)c1.[Cl-].[Cl-].[Ru+2].c1cnc2c(c1)ccc1cccnc12", "target or system": "B16-F10", "conditions": "visible light 100 J/cm2", "scale": "baseline: dark EC50 over light EC50", "quantity": "phototherapeutic index", "result": 2}
{"Structure (SMILES)": "CNS(=O)(=O)Nc1nccc(Cc2c(C)c3ccc(Oc4ncccc4F)cc3oc2=O)c1F", "target or system": "NCI-N87", "test": "cell viability", "conditions": "7 days", "quantity": "IC50", "result": "368 nM"}
{"Structure (SMILES)": "C[n+]1cc(/C=N/NC(=O)c2ccc3ccc(C(=O)N/N=C/c4cc5ccccc5[n+](C)c4)nc3n2)cc2ccccc21", "target or system": "telomeric G4 DNA hybrid-2", "test": "FRET melting", "conditions": "1 µM, DNA 0.2 µM", "quantity": "ΔTm", "result": "17.4 ± 0.7 °C"}
{"Structure (SMILES)": "c1ccc(-c2n[nH]cc2-c2ccnc3ccccc23)nc1", "target or system": "SAT4 (Candida albicans)", "test": "kinase binding, MIB/MS competition", "system": "Candida albicans lysate", "conditions": "10 µM", "scale": "baseline: DMSO", "quantity": "log2 fold change", "result": -0.02}
{"Structure (SMILES)": "C[n+]1ccc(/C=N/NC(=O)c2cc(C(=O)N/N=C/c3cc[n+](C)cc3)ncn2)cc1", "target or system": "telomeric G4 DNA hybrid-2", "test": "FRET melting", "conditions": "1 µM, DNA 0.2 µM, with: duplex DNA competitor 10 µM", "quantity": "ΔTm", "result": "1.3 ± 0.2 °C"}
{"Structure (SMILES)": "CC(C)(C)c1cc(-c2ccc3cc4ccccc4nc3n2)nc(-c2ccc3cc4ccccc4nc3n2)c1.[Cl-].[Cl-].[Ru+2].c1ccc2cc3nc4c5cccnc5c5ncccc5c4nc3cc2c1", "target or system": "B16-F10", "test": "resazurin", "conditions": "with: light 523 nm, 100 J/cm2", "scale": "baseline: dark EC50 over light EC50", "quantity": "phototoxicity index", "result": 3}
{"Structure (SMILES)": "Nc1ncc(-c2cc(-c3cnn(CC(F)(F)F)c3)ncc2F)nc1C(=O)NC1CNCC(F)C1 (stereo not shown)", "target or system": "p38-alpha", "test": "KINOMEscan competition binding", "conditions": "1 µM", "scale": "baseline: DMSO control", "quantity": "remaining binding", "result": "96%"}
{"Structure (SMILES)": "Cn1ncc2cc(-c3cncc(Cl)c3N3CCC4(CCNC4=O)CC3)ccc21", "target or system": "LS174T", "test": "gene expression, microarray, refers to: PFKFB4 mRNA", "conditions": "concentration not given, 4 h", "scale": "baseline: untreated cells", "quantity": "log2 fold change", "result": 1.15}
{"Structure (SMILES)": "C=CC(=O)N1[C@@H](c2ccc3c(c2)OCO3)c2[nH]c3ccccc3c2C[C@H]1C(=O)N1CCN(C)CC1", "target or system": "human cyclin E1 wild type-3xFLAG:CDK2", "test": "co-IP with TMT proteomics, refers to: BCLAF1", "conditions": "concentration not given, Q9NYF8", "scale": "baseline: wild type DMSO", "quantity": "relative co-enrichment", "result": "106%"}
{"Structure (SMILES)": "C[n+]1cc(/C=N/NC(=O)c2ccc3ccc4ccc(C(=O)N/N=C/c5cc6ccccc6[n+](C)c5)nc4c3n2)cc2ccccc21", "target or system": "telomeric G4 DNA hybrid-2", "test": "FRET melting", "conditions": "1 µM, DNA 0.2 µM", "quantity": "ΔTm", "result": "24.1 ± 0.5 °C"}
{"Structure (SMILES)": "C=CC(=O)Nc1cccc(Cn2ncc3cnc(Nc4cnn(CCOC)c4)nc32)c1", "target or system": "PIP5K2B human", "test": "binding, KINOMEscan", "conditions": "100 nM", "scale": "lower = stronger binding", "quantity": "percent of control", "result": "8.2%"}
{"Structure (SMILES)": "COc1cc(O)ccc1CCC(c1ccc(O)cc1)c1cc2c(c(C)c1O)OC(c1ccc(O)cc1)CC2 (mixture of isomers)", "test": "refers to: 15-HETE", "system": "human whole blood", "conditions": "0.3 µM, with: Escherichia coli", "quantity": "amount", "result": "3690 ± 881 pg/mL blood"}
{"Structure (SMILES)": "O=C(N/N=C/c1ccc2c(ccc[n+]2Cc2ccccc2)c1)c1cncc(C(=O)N/N=C/c2ccc3c(ccc[n+]3Cc3ccccc3)c2)n1", "target or system": "telomeric G4 DNA hybrid-2", "test": "FRET melting", "conditions": "1 µM, DNA 0.2 µM, with: duplex DNA competitor 10 µM", "quantity": "ΔTm", "result": "22.7 ± 0.7 °C"}
{"Structure (SMILES)": "Cc1ncsc1-c1ccc(C(C)NC(=O)C2CC(O)CN2C(=O)C(NC(=O)CCCCCCCCCCN2CCCC(Nc3ncc(Cl)c(Nc4ccccc4S(=O)(=O)C(C)C)n3)C2)C(C)(C)C)cc1 (stereo not shown)", "target or system": "22Rv1", "test": "RNA-seq, refers to: TUT7 mRNA", "conditions": "concentration not given", "scale": "baseline: DMSO", "quantity": "log2 fold change", "result": -1.37}
{"Structure (SMILES)": "CC(=O)[O-].O.O.O.O.[Mn+2].[O-]c1ccc(Br)cc1C=NCCN1CCOCC1", "test": "FRAP", "conditions": "120 µM", "quantity": "ferric reducing power", "result": "22.9%"}
{"Structure (SMILES)": "CN1CCCNC(=O)c2cccc(c2)C(=O)NCCCN(C)CCCNc2cccc3c2C(=O)c2cccc(c2C3=O)NCCC1", "target or system": "SAS", "test": "RNA-Seq, refers to: PIAS3 mRNA", "conditions": "1 µM, 6 h", "scale": "baseline: untreated cells", "quantity": "log2 fold change", "result": -1.03}
{"Structure (SMILES)": "O=C(N/N=C/c1cc[n+](CC2CC2)c2ccccc12)C(=O)N/N=C/c1cc[n+](CC2CC2)c2ccccc12", "target or system": "telomeric G4 DNA hybrid-2", "test": "FRET melting", "conditions": "1 µM, DNA 0.2 µM, with: duplex DNA competitor 10 µM", "quantity": "ΔTm", "result": "3.6 ± 0.7 °C"}
{"Structure (SMILES)": "COCCOCCOCCNC(=O)Cc1cc(CC(=O)N[C@H]2C[C@H]3C(=O)Nc4cc(OCCOCCOCCOC)cc(n4)C(=O)N4CCC[C@H]4C(=O)Nc4cc(OCCOCCOCCOC)cc(n4)C(=O)N4CCC[C@H]4C(=O)Nc4cc(OCCOCCOCCOC)cc(n4)C(=O)N3C2)cc(CC(=O)N[C@H]2C[C@H]3C(=O)Nc4cc(OCCOCCOCCOC)cc(n4)C(=O)N4CCC[C@H]4C(=O)Nc4cc(OCCOCCOCCOC)cc(n4)C(=O)N4CCC[C@H]4C(=O)Nc4cc(OCCOCCOCCOC)cc(n4)C(=O)N3C2)c1", "test": "anion binding, ITC", "system": "phosphate buffer 35 mM", "conditions": "pH 7.4, 298 K, with: sodium sulfate", "quantity": "ΔH", "result": "6.8 ± 0.4 kJ mol^–1"}
{"Structure (SMILES)": "O=C(N/N=C/c1cc[n+](Cc2ccccc2)c2ccccc12)c1ccc2ccc3ccc(C(=O)N/N=C/c4cc[n+](Cc5ccccc5)c5ccccc45)nc3c2n1", "target or system": "telomeric G4 DNA hybrid-2", "test": "FRET melting", "conditions": "1 µM, DNA 0.2 µM", "quantity": "ΔTm", "result": "27.3 ± 0.8 °C"}
{"Structure (SMILES)": "CC(C)c1ccc(N(C)c2ccc3c(c2)OCC[C@H]3CNc2cnccc2C(=O)O)cc1", "target or system": "SW1271", "test": "cell growth or viability, ATP luminescence", "conditions": "7 days", "quantity": "IC50", "result": "≥ 10000 nM"}
{"Structure (SMILES)": "O=C(N/N=C/c1ccc2c(ccc[n+]2Cc2ccccc2)c1)C(=O)N/N=C/c1ccc2c(ccc[n+]2Cc2ccccc2)c1", "target or system": "telomeric G4 DNA hybrid-2", "test": "FRET melting", "conditions": "1 µM, DNA 0.2 µM", "quantity": "ΔTm", "result": "8.1 ± 0.9 °C"}
{"Structure (SMILES)": "COC1CN([C@H]2CC[C@H]([C@@]3(C)Oc4c(Cl)cc(C(=O)NCc5c(SC)cc(C)[nH]c5=O)c(C)c4O3)CC2)C1", "test": "RNA-seq, refers to: SCARF1 mouse homolog", "system": "mouse, HT-1376 xenograft, whole blood", "conditions": "dose not given", "scale": "baseline: vehicle", "quantity": "log2 fold change", "result": 0.247}
{"note": "For quick reference, copied from above:"}
{"Structure (SMILES)": "CC(C)(C)c1cc(-c2ccc3cccnc3n2)nc(-c2ccc3cccnc3n2)c1.[Cl-].[Cl-].[Ru+2].c1cnc2c(c1)ccc1cccnc12", "target or system": "B16-F10", "conditions": "visible light 100 J/cm2", "scale": "baseline: dark EC50 over light EC50", "quantity": "phototherapeutic index", "result": 2}
{"Structure (SMILES)": "CNS(=O)(=O)Nc1nccc(Cc2c(C)c3ccc(Oc4ncccc4F)cc3oc2=O)c1F", "target or system": "NCI-N87", "test": "cell viability", "conditions": "7 days", "quantity": "IC50", "result": "368 nM"}
